Results collected from several papers.
Each numbered part is a random draw from the data of one study; scales do not carry over between parts.
Chain of UniProt P31749 (whole entry, looked up): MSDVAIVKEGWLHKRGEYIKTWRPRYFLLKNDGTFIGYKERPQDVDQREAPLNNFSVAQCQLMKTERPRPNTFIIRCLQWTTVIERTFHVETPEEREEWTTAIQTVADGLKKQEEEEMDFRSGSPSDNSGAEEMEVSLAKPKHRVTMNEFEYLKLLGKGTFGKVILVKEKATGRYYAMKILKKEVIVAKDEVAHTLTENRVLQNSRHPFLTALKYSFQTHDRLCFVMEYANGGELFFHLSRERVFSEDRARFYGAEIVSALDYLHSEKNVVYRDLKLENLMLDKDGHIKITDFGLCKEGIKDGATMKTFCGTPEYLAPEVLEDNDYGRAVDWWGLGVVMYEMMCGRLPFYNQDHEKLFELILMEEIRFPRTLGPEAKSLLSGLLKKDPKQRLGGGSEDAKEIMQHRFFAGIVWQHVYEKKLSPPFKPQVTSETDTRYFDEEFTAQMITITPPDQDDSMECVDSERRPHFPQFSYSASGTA
Chain of UniProt P09769 (whole entry, looked up): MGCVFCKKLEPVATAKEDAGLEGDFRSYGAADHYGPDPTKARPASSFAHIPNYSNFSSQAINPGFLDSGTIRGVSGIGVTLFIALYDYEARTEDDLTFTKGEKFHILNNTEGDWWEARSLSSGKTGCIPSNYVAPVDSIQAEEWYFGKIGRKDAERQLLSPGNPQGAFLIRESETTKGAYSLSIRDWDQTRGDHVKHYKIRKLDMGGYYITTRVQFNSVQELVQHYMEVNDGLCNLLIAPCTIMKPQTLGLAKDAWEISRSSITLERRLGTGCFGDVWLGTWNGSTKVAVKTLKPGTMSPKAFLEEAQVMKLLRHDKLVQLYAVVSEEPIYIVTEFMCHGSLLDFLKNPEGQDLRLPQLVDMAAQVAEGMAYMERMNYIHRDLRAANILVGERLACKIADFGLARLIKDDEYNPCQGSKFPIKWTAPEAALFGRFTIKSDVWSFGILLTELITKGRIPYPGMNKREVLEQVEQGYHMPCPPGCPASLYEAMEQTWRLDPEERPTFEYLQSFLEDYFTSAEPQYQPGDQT
Chain of UniProt Q8NG66 (whole entry, looked up): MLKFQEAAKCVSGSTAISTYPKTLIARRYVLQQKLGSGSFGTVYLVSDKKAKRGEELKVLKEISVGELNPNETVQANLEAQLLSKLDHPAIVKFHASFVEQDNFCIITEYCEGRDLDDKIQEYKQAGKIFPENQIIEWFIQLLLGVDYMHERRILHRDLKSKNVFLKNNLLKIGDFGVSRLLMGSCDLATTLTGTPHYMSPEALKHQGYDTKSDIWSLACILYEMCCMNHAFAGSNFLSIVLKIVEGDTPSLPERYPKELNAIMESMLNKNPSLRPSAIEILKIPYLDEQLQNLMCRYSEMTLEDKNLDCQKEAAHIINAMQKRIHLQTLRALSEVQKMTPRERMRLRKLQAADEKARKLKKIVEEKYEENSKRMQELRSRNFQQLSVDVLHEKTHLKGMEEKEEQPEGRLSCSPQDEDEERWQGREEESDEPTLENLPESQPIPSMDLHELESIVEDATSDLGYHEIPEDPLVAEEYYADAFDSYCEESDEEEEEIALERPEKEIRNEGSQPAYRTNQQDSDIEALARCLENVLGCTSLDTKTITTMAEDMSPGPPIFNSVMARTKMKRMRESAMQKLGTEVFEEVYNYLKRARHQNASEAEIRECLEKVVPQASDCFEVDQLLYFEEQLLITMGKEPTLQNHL
Chain of UniProt P35916 (whole entry, looked up): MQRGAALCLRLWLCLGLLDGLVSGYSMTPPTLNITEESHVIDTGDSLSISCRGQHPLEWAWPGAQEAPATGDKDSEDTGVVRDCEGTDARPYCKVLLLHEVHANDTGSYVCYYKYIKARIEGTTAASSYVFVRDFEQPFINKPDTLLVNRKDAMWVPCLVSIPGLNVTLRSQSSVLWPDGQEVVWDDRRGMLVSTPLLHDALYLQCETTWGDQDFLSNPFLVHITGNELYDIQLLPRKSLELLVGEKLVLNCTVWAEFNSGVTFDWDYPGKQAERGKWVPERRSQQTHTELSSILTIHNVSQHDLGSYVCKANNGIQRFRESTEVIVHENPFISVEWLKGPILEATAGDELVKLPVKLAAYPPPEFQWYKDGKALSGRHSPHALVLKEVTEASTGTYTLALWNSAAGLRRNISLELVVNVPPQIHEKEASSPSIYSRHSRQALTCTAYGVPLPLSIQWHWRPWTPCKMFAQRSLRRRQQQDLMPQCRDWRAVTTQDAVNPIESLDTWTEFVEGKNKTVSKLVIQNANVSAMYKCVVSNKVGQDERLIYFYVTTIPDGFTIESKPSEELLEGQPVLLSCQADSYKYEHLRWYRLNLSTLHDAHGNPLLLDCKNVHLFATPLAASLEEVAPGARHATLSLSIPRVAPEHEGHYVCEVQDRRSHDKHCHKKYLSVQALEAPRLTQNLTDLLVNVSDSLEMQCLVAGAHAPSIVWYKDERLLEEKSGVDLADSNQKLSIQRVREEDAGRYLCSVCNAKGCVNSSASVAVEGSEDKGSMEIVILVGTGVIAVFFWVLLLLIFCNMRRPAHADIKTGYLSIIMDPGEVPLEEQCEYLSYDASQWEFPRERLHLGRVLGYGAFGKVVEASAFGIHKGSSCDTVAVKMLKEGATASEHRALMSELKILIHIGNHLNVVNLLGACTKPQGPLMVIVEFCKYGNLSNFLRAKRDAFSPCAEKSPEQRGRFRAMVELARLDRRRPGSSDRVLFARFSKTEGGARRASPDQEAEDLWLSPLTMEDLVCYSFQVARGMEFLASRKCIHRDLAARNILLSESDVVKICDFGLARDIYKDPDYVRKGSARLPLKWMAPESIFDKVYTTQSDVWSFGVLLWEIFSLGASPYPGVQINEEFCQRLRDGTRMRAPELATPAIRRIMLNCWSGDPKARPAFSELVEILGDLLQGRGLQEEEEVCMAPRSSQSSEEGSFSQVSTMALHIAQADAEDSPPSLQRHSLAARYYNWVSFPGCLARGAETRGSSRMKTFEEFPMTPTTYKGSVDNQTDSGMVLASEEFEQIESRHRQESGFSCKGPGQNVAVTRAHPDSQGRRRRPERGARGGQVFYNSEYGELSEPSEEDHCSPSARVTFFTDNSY
Chain of UniProt Q16512 (whole entry, looked up): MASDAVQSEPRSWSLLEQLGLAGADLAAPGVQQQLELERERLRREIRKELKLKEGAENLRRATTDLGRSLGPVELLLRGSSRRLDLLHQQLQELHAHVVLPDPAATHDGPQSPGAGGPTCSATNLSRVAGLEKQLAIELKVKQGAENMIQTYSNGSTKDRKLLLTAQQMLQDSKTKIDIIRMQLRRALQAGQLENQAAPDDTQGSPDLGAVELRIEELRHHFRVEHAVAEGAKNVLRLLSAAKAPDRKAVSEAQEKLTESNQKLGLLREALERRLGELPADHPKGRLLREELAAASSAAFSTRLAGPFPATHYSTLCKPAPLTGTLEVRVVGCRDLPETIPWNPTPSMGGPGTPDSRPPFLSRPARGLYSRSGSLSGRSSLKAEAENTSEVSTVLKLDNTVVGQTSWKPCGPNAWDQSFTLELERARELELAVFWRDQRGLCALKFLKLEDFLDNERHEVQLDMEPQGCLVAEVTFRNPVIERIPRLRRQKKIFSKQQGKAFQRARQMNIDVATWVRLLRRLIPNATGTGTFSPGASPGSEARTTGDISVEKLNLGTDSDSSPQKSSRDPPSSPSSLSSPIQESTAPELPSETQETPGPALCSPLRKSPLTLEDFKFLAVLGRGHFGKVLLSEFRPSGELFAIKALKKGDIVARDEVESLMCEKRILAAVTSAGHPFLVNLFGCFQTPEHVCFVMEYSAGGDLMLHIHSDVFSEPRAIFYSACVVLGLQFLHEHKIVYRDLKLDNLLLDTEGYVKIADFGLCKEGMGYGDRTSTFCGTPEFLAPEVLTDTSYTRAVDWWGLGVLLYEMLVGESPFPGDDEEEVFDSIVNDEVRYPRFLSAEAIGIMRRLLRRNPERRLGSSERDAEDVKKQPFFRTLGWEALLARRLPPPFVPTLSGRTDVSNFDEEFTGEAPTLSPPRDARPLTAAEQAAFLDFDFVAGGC
Chain of UniProt P06241 (whole entry, looked up): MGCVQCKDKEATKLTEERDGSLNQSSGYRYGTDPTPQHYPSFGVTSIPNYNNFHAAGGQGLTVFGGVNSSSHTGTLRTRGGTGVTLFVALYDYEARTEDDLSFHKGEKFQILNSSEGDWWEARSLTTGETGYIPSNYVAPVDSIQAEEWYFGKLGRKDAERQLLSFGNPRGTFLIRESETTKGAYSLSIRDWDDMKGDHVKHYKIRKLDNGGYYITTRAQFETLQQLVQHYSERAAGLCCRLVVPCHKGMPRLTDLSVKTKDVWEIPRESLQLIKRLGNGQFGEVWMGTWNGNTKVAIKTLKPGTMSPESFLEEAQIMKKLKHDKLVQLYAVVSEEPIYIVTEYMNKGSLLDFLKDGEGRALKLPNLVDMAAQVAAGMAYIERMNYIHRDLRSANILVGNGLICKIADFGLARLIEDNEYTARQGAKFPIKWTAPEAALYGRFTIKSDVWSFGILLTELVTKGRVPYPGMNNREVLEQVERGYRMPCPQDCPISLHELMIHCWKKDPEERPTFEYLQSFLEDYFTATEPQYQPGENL

Series 1 — SMILES: Fc1ccc(-c2nc3n(c2-c2ccncc2)CCS3)cc1; read-out: enzyme activity; mode: inhibitor; tested at: 0.5 µM; reference: control
target	remaining activity [%]
FLT4 (Homo sapiens, UniProt P35916)	112
MARK3 (Homo sapiens, UniProt P27448)	88.9
PASK (Homo sapiens, UniProt Q96RG2)	109
FYN (Homo sapiens, UniProt P06241)	108
STK25 (Homo sapiens, UniProt O00506)	104
TAOK3 (Homo sapiens, UniProt Q9H2K8)	98.9
LIM domain kinase 1 (LIMK1, Homo sapiens, UniProt P53667)	89.3
NEK11 (Homo sapiens, UniProt Q8NG66)	71.4
FER (Homo sapiens, UniProt P16591)	86.4
ALK (Homo sapiens, UniProt Q9UM73)	124
Cyclin-dependent kinase 3, with cyclin E (CDK3, Homo sapiens, UniProt Q00526)	97
SRC (Homo sapiens, UniProt P12931)	98.2
MATK (Homo sapiens, UniProt P42679)	89.4
ITK (Homo sapiens, UniProt Q08881)	97.5
CDC42BPA (Homo sapiens, UniProt Q5VT25)	88.7
Insulin receptor (INSR, Homo sapiens, UniProt P06213)	91.2
NLK (Homo sapiens, UniProt Q9UBE8)	41.1
FGR (Homo sapiens, UniProt P09769)	92.6
PRKX (Homo sapiens, UniProt P51817)	97.6
AKT1 (Homo sapiens, UniProt P31749)	105
PKN1 (Homo sapiens, UniProt Q16512)	101

Series 2 — organism: Plasmodium berghei; mode: inhibitor; cells: Huh-7; strain: GFP-expressing sporozoites, liver stage; tested at: 10 µM; time: 24 h; reference: untreated control
Structure (SMILES)	infection rate
C[C@@H]1[C@H](O)[C@@H](C)/C=C/C=C/C=C/C=C/C=C/C=C/C=C/[C@H](O[C@@H]2O[C@H](C)[C@@H](O)[C@H](N)[C@@H]2O)C[C@@H]2O[C@](O)(C[C@@H](O)C[C@@H](O)[C@H](O)CC[C@@H](O)C[C@@H](O)CC(=O)O[C@H]1C)C[C@H](O)[C@H]2C(=O)O	95.2%
C[C@H](CCC(=O)O)[C@H]1CC[C@H]2[C@@H]3[C@H](O)C[C@@H]4C[C@H](O)CC[C@]4(C)[C@H]3CC[C@]12C	92.9%
CCOC(=O)C(C)(C)Oc1ccc(Cl)cc1	106%
COc1ccc(C(=O)CC(=O)c2ccc(C(C)(C)C)cc2)cc1	89.7%
CC(=O)OCC1=C(C(=O)O)N2C(=O)[C@@H](NC(=O)Cc3cccs3)[C@H]2SC1	93.6%
C#C[C@]1(O)CC[C@H]2[C@@H]3CCC4=Cc5oncc5C[C@]4(C)[C@H]3CC[C@@]21C	102%
Cc1c(N(C)CS(=O)(=O)O)c(=O)n(-c2ccccc2)n1C	116%
NC(=NCCCCCCN=C(N)/N=C(\N)Nc1ccc(Cl)cc1)/N=C(\N)Nc1ccc(Cl)cc1	13.9%
Nc1ccn([C@@H]2O[C@H](CO)[C@@H](O)[C@@H]2O)c(=O)n1	73.2%
COc1ccc(C2C(=O)c3ccccc3C2=O)cc1	84.5%
CC1=Nc2ccc(Cl)cc2S(=O)(=O)N1	88.2%
CCCCCCCCCCCCCCCC(=O)O[C@@H]1[C@@H](O)[C@@H](O)[C@@H]([C@H](NC(=O)[C@@H]2C[C@@H](CCC)CN2C)[C@H](C)Cl)O[C@@H]1SC	92%

Series 3 — mode: antagonist
Target: Beta-1 adrenergic receptor (ADRB1, Homo sapiens, UniProt P08588)
Chain of UniProt P08588 (whole entry, looked up): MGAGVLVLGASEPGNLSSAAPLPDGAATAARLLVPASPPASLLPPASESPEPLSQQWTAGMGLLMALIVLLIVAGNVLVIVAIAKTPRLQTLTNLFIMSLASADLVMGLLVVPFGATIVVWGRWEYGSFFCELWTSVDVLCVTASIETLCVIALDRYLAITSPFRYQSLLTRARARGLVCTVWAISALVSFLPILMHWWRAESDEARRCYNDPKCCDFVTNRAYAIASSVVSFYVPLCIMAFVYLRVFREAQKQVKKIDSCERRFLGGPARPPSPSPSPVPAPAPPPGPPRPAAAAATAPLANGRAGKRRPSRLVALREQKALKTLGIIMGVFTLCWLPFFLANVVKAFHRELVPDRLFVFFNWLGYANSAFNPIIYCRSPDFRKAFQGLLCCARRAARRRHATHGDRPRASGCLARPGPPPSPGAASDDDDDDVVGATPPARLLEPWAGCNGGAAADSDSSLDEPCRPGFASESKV
SMILES	IC50
COc1ccccc1N1CCN(C(=O)C(C)[C@@H]2CCc3c(C)cc(OCCN4CCOCC4)c(C)c3C2)CC1 (some centres unmarked)	≥ 100 µM
Cc1noc2c(N3CCNC(=O)C3)cc(-c3cccc(C(F)(F)F)c3)nc12	≥ 100 µM
Clc1cccc(-c2c[nH]c([C@@H]3COCCN3Cc3cnc4ccccc4c3)n2)c1	≥ 100 µM
C=CCN1CCN(Cc2cccc(OCC(O)CN(C)C3CCCCC3)c2)CC1 (centres unmarked)	≥ 100 µM
Fc1ccc(NC(=S)N[C@H]2CO[C@H]3[C@@H]2OC[C@@H]3n2nnnc2Oc2ccc(-n3cncn3)cc2)cc1	≥ 100 µM
COc1cc(CN[C@H]2CC[C@H](O)CC2)ccc1OCC(O)CN1CCSCC1 (some centres unmarked)	≥ 100 µM
COc1ccccc1NC(=O)Nc1cccc(-c2ccc(N3CCOCC3)nn2)c1	≥ 100 µM
COc1ccccc1N1CCN(CCC(=O)NC2CCCc3ccccc32)CC1 (centres unmarked)	≥ 100 µM
Cc1cc(=O)oc2cc(CN(C)CC(C)N3CCOCC3)ccc12 (centres unmarked)	≥ 100 µM
Cc1occc1-c1nnc(SCc2cn3cccc(C)c3n2)o1	≥ 100 µM
Cc1ccsc1-c1n[nH]c2ncc(-c3ccccc3F)nc12	≥ 100 µM
Cc1cc(-c2cc(-c3cccc(C(F)(F)F)c3)nc3c(C)noc23)ccn1	≥ 100 µM
Cc1nc(N)ncc1-c1nc(N2CCOCC2)c2sc(C(C)(C)O)cc2n1	≥ 100 µM

Mixed results
SMILES	target	test	measurement	value
Cn1c(-c2csc(C3CCN(Cc4nc5ncccc5[nH]4)CC3)n2)nc2ccccc21	5-hydroxytryptamine receptor 2B (HTR2B, Homo sapiens, UniProt P41595)	binding	Ki	1.58 µM
